Published values from different studies.
Parts stem from different laboratories: compare values within a part only. Positions count from the first letter of the parent shown.

Study 1
Target: RING finger protein unkempt homolog, zinc fingers 1-6, GST-SBP tag (UNK, Homo sapiens, UniProt Q9C0B0, residues 30-357)
Sequence of UniProt Q9C0B0 (30-357, looked up): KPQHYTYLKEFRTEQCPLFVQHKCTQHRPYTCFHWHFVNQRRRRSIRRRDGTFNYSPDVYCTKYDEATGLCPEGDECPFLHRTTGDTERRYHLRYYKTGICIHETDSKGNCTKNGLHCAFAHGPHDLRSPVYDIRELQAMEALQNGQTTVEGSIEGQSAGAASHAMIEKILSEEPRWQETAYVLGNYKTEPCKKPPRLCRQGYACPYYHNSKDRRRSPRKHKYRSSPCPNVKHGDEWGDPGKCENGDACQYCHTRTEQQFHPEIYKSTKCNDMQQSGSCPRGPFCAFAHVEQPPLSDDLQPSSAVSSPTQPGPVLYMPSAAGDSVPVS
Technique: RNA Bind-n-Seq
Form: RNA
Sample: in vitro
Concentration: not given
Notes: RNA with constant flanks, human and mouse sites, ends assumed
Baseline: input RNA pool
Reading: higher = stronger binding
With `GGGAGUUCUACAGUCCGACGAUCGGGGAUGUUGCUUACUCUUUUUGCCCACACUGCUUUGGAUACUUAUCUACUGUCCGAAGGCCUUCUUUCCCCACUCAAUUCUUCCUGCCCUGUUAUUAAUUAAGAUAUCUUCAGCUUGUACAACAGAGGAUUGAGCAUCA` the bound/input enrichment was 0.613 ratio.
With `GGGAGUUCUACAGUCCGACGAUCUGUGAACUGUCUCUUGAGAUCUAAAAACAAGAUGACUUUUCCUGGCACAUAUUCCAAAGCAAAGACUUUGUUGCCUGCUGCUUAUUGUCUAAUUUACAGGGAUAUUUAAUUUUGUCAGGUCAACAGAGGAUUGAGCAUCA` the bound/input enrichment was 0.116 ratio.
`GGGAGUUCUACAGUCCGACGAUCAAGCUCCUUCAUGACUUGGUACAACCUCCAACCAUCACUCAACAGUCACCAAAAGACUACAUCAUUGACCCUCGGGAGAAUAUUGUAAUCCAGUGUGAGGCCAAAGGGAAACCUCCCCCACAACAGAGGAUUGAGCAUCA` has a bound/input enrichment of 0.202 ratio.
With `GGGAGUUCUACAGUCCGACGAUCGGCUCAUUUGUAAAAUUGUCCUAAUUUUUCCUAGCUUUCAGCCAUUAGAAACUCUUUUAAUAGUUCCUUUUGAGUUGUGAGCUCUUCUUCUGUAGCCCUGAAGGGACACUGUAUUCUGUACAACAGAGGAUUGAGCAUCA` the bound/input enrichment was 2.61 ratio.
For `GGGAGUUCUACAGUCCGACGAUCGAGGGAAUGUCUGAAAGUCCCUUAAUAAUGUUAAGAAUCAAGAGAGAGAAAUUGUUGCCUUUUUUUUUUAAUUCUGAGCAUAUUGACCAUGUCAACUAACACUACAGAUUAAAAUAUCAUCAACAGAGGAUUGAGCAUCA`, the bound/input enrichment was 0.51 ratio.

Study 2
Target: Histone acetyltransferase KAT6A, winged helix 2, GST fusion (KAT6A, Homo sapiens, UniProt Q92794, residues 85-181)
Technique: protein binding microarray
Form: double-stranded DNA, one strand shown
Sample: in vitro
Concentration: not given
Notes: 8-mer, flanks averaged, mean of 2 arrays, mostly near background
Baseline: not given
Reading: higher = stronger binding
Residues (chain): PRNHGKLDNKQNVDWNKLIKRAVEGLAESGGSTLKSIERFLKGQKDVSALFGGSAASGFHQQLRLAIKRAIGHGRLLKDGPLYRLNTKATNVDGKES
For `AATACTCT`, the E-score was 0.022.
For `CCCAACCA`, the E-score was -0.0481.
For `ACAGGTGG`, the E-score was -0.0366.
The E-score of `AAGACCCA` is reported as -0.134.
`ACAATTTA` gave an E-score of 0.0776.
`GACGCGGC` has an E-score of -0.00771.
With `AACGAGGG` the E-score was 0.0168.

Study 3
Target: CCND3, cyclin fold, Cln2 fusion (human)
Technique: yeast growth competition, sequencing
Sample: yeast
Notes: weak parent motif
Baseline: not given
Reading: higher = stronger binding
Starting sequence: CDKN1A docking peptide (human); SKACRRLFGPVDS; partner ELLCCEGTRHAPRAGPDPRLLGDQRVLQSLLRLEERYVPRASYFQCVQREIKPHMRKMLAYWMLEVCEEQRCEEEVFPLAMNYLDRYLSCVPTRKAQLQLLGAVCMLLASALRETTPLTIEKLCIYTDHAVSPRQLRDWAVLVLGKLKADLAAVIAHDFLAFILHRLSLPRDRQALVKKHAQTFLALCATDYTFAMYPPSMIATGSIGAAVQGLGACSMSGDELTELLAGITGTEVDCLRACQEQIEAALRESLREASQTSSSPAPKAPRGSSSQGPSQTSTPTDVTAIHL
Under “normalised enrichment score”, `D12V` is recorded as 0.274.
For `V11N`, “normalised enrichment score” read 0.161.
Under “normalised enrichment score”, `F8D` is recorded as 0.32.
`P10I`: “normalised enrichment score” 0.814.
`R5W` — result for “normalised enrichment score”: 0.179.

Other studies, line by line
`PhoQ, residues 284 288 289 292 302 303 ALSMDL` has a fold induction of 1.54 (PhoP, residues 12 14 15 18 19 SQCLL (Escherichia coli, UniProt P23836); Sort-seq, item: YFP reporter; E. coli; PhoQ-PhoP variant library, added: 10 µM Mg2+; baseline: high Mg2+ state, higher = stronger signaling).

For quick reference, copied from above (study 1):
With `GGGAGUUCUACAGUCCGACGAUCUGUGAACUGUCUCUUGAGAUCUAAAAACAAGAUGACUUUUCCUGGCACAUAUUCCAAAGCAAAGACUUUGUUGCCUGCUGCUUAUUGUCUAAUUUACAGGGAUAUUUAAUUUUGUCAGGUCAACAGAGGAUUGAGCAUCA` the bound/input enrichment was 0.116 ratio.
`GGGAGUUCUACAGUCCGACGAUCAAGCUCCUUCAUGACUUGGUACAACCUCCAACCAUCACUCAACAGUCACCAAAAGACUACAUCAUUGACCCUCGGGAGAAUAUUGUAAUCCAGUGUGAGGCCAAAGGGAAACCUCCCCCACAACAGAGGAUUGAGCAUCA` has a bound/input enrichment of 0.202 ratio.
